Measured values pooled from the literature.
Values joined by “and” are separate records of one study, mostly repeats; a detail may differ.
DRD3: D(3) dopamine receptor (DRD3, Homo sapiens, UniProt P35462)
UniProt P35462, sequence (whole entry, looked up): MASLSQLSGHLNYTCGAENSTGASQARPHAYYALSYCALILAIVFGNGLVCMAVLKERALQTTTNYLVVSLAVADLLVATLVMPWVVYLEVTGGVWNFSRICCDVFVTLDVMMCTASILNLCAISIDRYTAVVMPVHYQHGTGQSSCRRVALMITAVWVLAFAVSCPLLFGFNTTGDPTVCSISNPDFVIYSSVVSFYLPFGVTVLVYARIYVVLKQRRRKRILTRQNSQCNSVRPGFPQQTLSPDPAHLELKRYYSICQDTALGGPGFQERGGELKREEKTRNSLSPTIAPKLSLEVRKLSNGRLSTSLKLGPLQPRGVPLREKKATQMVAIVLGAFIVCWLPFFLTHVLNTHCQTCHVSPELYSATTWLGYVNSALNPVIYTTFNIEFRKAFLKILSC
HDAC1: Histone deacetylase 1 (HDAC1, Homo sapiens, UniProt Q13547)
UniProt Q13547, sequence (whole entry, looked up): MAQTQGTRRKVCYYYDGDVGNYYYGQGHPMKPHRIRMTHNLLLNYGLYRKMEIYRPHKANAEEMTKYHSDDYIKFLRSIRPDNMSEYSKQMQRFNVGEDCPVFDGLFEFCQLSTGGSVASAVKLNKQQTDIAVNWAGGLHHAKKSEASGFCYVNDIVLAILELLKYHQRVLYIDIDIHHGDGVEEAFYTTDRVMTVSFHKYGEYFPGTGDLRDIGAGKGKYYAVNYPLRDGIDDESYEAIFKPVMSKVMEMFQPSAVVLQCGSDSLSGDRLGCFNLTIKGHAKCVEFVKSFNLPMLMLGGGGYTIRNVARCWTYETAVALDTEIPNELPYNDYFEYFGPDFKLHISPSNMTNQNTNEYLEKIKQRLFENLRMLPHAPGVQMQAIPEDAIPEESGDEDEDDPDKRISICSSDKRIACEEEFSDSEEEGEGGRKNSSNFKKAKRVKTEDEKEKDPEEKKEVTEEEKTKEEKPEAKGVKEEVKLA
CES2: Cocaine esterase (CES2, Homo sapiens, UniProt O00748)
UniProt O00748, sequence (whole entry, looked up): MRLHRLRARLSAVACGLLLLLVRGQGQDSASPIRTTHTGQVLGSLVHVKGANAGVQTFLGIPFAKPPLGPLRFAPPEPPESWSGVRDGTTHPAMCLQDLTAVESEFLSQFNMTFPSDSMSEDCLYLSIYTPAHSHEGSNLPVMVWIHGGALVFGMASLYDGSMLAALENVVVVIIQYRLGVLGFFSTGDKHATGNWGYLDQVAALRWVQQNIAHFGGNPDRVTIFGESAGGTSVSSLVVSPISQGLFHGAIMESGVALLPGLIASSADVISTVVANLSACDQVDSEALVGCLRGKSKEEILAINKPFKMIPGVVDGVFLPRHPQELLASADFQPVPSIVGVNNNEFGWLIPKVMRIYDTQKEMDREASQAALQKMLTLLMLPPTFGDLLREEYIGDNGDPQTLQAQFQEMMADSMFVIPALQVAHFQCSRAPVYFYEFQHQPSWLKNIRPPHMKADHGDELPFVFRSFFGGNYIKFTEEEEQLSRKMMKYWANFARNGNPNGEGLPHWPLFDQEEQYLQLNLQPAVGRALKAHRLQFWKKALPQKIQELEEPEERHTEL
PARP10: Protein mono-ADP-ribosyltransferase PARP10 (PARP10, Homo sapiens, UniProt Q53GL7)
UniProt Q53GL7, sequence (whole entry, looked up): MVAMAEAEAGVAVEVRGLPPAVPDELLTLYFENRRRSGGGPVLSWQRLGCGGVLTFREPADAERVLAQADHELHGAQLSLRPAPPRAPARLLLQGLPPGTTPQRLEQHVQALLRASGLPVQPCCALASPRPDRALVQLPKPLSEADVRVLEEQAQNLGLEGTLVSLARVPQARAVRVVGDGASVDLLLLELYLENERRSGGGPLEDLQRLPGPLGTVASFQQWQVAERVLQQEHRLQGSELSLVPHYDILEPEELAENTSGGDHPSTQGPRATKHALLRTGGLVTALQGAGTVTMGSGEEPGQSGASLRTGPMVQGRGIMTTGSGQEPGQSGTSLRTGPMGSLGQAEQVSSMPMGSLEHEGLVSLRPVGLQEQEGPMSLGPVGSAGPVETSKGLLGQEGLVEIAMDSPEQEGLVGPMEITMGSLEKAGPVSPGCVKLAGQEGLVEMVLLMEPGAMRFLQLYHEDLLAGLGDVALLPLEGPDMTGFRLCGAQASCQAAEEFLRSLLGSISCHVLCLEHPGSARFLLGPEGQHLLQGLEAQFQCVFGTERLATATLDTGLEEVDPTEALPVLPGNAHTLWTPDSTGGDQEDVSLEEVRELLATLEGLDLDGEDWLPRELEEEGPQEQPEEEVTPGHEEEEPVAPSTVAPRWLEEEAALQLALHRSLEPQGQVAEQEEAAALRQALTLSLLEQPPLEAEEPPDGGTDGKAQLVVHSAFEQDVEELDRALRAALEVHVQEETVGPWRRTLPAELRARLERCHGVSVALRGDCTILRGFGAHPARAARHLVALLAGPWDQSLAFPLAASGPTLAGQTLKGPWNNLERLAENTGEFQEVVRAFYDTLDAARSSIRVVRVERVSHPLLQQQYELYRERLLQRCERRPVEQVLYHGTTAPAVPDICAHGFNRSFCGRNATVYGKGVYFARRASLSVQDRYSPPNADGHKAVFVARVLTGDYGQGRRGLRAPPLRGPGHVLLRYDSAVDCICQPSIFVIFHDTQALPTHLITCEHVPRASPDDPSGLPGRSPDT
PIK3CB: Phosphatidylinositol 4,5-bisphosphate 3-kinase catalytic subunit beta isoform (PIK3CB, Homo sapiens, UniProt P42338)
UniProt P42338, sequence (whole entry, looked up): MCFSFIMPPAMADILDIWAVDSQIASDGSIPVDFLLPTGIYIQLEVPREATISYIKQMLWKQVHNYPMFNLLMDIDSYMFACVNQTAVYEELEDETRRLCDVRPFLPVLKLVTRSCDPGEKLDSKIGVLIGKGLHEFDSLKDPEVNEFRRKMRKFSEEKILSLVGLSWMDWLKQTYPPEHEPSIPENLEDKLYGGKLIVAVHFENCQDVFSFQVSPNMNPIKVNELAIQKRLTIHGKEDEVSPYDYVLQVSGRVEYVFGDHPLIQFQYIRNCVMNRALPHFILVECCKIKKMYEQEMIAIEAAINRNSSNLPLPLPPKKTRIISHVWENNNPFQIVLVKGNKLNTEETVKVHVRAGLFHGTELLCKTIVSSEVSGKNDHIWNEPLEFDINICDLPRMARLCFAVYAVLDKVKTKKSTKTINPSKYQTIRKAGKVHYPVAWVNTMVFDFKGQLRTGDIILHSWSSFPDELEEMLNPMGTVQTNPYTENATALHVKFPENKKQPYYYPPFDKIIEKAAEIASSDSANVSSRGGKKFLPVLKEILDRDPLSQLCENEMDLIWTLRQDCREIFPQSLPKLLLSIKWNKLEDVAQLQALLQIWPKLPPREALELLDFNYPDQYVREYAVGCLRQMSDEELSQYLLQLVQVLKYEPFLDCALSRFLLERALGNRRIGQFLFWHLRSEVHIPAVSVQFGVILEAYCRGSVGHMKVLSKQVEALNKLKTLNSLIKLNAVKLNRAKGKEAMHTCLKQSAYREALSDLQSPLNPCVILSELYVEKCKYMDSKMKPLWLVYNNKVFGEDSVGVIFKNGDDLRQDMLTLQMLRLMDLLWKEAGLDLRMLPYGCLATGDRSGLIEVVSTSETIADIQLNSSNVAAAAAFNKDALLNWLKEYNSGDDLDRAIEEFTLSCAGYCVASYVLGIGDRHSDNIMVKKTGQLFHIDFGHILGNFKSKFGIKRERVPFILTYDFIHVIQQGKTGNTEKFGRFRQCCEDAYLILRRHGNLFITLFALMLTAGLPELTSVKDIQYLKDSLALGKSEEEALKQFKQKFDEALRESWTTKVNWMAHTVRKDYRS
SIRT6: NAD-dependent protein deacylase sirtuin-6 (SIRT6, Homo sapiens, UniProt Q8N6T7)
HDAC8: Histone deacetylase 8 (HDAC8, Homo sapiens, UniProt Q9BY41)
UniProt Q9BY41, sequence (whole entry, looked up): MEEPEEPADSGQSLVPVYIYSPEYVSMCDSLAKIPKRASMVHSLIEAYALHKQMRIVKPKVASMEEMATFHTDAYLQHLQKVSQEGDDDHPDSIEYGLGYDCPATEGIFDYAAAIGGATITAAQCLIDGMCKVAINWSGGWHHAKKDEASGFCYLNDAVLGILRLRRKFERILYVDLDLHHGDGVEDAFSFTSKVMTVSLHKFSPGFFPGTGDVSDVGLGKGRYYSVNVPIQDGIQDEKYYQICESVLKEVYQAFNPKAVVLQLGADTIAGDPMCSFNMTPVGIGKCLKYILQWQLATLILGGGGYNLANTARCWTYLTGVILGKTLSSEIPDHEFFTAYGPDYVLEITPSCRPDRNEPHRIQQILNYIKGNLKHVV
PARP2: Poly [ADP-ribose] polymerase 2 (PARP2, Homo sapiens, UniProt Q9UGN5)
UniProt Q9UGN5, sequence (whole entry, looked up): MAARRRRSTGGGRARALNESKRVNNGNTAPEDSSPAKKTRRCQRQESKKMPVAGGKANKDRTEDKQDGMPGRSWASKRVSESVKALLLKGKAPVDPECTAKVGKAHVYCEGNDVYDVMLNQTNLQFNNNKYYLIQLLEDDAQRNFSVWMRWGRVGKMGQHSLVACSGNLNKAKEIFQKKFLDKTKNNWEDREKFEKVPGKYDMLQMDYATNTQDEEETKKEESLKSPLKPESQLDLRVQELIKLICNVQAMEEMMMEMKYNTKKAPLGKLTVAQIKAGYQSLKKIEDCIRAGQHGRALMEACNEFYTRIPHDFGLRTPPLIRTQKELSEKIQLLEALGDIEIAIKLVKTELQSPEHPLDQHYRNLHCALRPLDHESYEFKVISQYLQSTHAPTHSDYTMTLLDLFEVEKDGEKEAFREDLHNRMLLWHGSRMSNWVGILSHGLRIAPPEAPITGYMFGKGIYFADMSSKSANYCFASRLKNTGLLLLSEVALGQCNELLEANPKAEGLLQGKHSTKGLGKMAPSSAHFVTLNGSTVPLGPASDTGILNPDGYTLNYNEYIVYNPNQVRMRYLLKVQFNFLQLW
UniProt Q02127, sequence (whole entry, looked up): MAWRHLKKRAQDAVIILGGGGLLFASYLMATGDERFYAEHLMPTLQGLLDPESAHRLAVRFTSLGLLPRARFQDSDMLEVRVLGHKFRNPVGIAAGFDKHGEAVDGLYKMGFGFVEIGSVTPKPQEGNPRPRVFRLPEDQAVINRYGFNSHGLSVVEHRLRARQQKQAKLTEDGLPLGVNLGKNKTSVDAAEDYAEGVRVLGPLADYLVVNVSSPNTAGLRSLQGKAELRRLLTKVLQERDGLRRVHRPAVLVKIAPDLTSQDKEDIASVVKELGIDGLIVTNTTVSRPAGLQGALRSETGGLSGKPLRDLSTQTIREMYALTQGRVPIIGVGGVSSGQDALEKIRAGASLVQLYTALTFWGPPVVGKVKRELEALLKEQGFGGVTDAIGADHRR

CCNC(=O)c1c(C)[nH]c(C)c1S(=O)(=O)Nc1ccc(C(F)(F)F)c(Cl)c1 has an IC50 of 9.2 µM (DRD3; β-arrestin recruitment, antagonist).
O=C(NO)c1cncc(OS(=O)(=O)Oc2ccc(C(F)(F)F)cc2)c1 has an IC50 of 2.92 µM (HDAC1; enzyme activity, inhibitor, fluorescence).
For O=C1/C(=C/c2ccccc2)Cc2ccccc21, the IC50 was 12.4 µM (CES2; enzyme activity, inhibitor, fluorescence; with preincubation).
The IC50 of CNC(=O)c1cc2c(Oc3ccc(NC(=O)C4(C(=O)Nc5ccc(F)cc5)CC4)cc3)ccnc2cc1OC is reported as 0.013 µM (MET (Homo sapiens, UniProt P08581, D1228N); enzyme activity, inhibitor, radiometric).
Cc1[nH]c(C)c(S(=O)(=O)Nc2ccc(C(F)(F)F)c(Cl)c2)c1C(=O)N(C)CC(F)(F)F gave an IC50 of greater than 50 µM (DRD3; β-arrestin recruitment, antagonist).
CCCCCn1nnc2c3ccc(F)cc3c(=O)[nH]c21 gave an IC50 of 0.224 µM (PARP10; enzyme activity, inhibitor).
For C[C@@H](Oc1cc(-c2cnn(C3CCNCC3)c2)cnc1N)c1c(Cl)ccc(F)c1Cl, the IC50 was 23.7 µM (CES2; enzyme activity, inhibitor, fluorescence; with preincubation).
The IC50 of Cc1[nH]c(C)c(S(=O)(=O)Nc2ccc(C(C)C)cc2)c1C(=O)N1CCCC1 is reported as 12 µM (DRD3; G protein activation, antagonist, BRET).
CCCN(CCC)S(=O)(=O)c1ccc(C(=O)O)cc1 has an IC50 of 2300 µM (TAS2R14 (Homo sapiens, UniProt Q9NYV8, S65A); inositol phosphate, antagonist, TR-FRET).
The IC50 of O=C(NO)c1cccc(OS(=O)(=O)Oc2ccc3ccccc3c2)c1 is reported as 4.79 µM (HDAC1; enzyme activity, inhibitor, fluorescence).
For CC(C)(C)c1ccc(Cn2nnc3c4ccc(F)cc4c(=O)[nH]c32)cc1, the IC50 was greater than 10 µM (PARP10; enzyme activity, inhibitor).
Cc1[nH]c(C)c(S(=O)(=O)Nc2ccc(C(F)(F)F)c(Cl)c2)c1C(=O)N1CCC(C#N)C1 (centres unmarked) gave an IC50 of 8.1 µM (DRD3; G protein activation, antagonist, BRET).
COc1ccc(C[C@H](NC(=O)[C@H](C)NC(=O)CN2CCOCC2)C(=O)N[C@@H](CC2CC3CCC2C3)C(=O)[C@@]2(C)CO2)cc1 (mixture of isomers) has an IC50 of 9.68 µM (PSMB8 (Homo sapiens, UniProt P28062); enzyme activity, inhibitor; lysate).
The IC50 of Cc1nc(N(Cc2ccccc2)c2ccc3c(c2)/C(=C/c2ccccc2)C(=O)N3Cc2ccccc2)c2ccccc2n1 (mixture of isomers) is reported as 0.0942 µM (PIK3CB; enzyme activity, inhibitor, ADP detection).
[C-]#[N+]CCCOc1ccc2c(-c3ccccc3C(=O)OCC)c3ccc(=O)cc-3oc2c1 gave an IC50 of 74 µM (ALOX15 (Homo sapiens, UniProt P16050); enzyme activity, inhibitor, absorbance).
With CCCCCOc1ccc2ccc(C(=O)N[C@@H](CCCNC(=N)CCl)C(=O)NCc3ccccc3)cc2c1 the IC50 was ~0.9 µM and 0.914 µM (PADI4 (Homo sapiens, UniProt Q9UM07); enzyme activity, inhibitor, fluorescence; with preincubation).
Cc1[nH]c(C)c(S(=O)(=O)Nc2ccc(C(F)(F)F)c(Cl)c2)c1C(=O)NCC(F)F gave an IC50 of 7.6 µM (DRD3; β-arrestin recruitment, antagonist).
COc1cc2c(cc1OC)C(=O)/C(=C/c1ccc(O)c(F)c1)C2 has an IC50 of greater than 100 µM (CES2; enzyme activity, inhibitor, fluorescence; with preincubation).
Cc1[nH]c(C)c(S(=O)(=O)Nc2ccc(C(F)(F)F)c(Cl)c2)c1C(=O)N1C[C@@H](F)[C@@H](F)C1 has an IC50 of 0.95 µM (DRD3; G protein activation, antagonist, BRET).
COc1cc2c(cc1OC)C(=O)/C(=C/c1cccc(O)c1)C2 has an IC50 of 3.92 µM (CES2; enzyme activity, inhibitor, fluorescence; with preincubation).
For COc1ccn2c(Nc3ccccc3F)c(-c3ccncn3)nc2c1, the IC50 was less than 0.0001 µM (KCNH2 (Homo sapiens, UniProt Q12809); ion current, inhibitor).
For NC(=O)c1ccc(C(=O)NOCc2ccc3sc4ccccc4c3c2)cc1, the IC50 was 1.67 µM (SIRT6; enzyme activity, inhibitor, fluorescence).
O=c1[nH]c2c(nnn2C2CCCCC2)c2ccc(F)cc12 has an IC50 of greater than 10 µM (PARP10; enzyme activity, inhibitor).
For COC(=O)N[C@H](C(=O)N[C@@H](Cc1ccccc1)[C@@H](O)CN(Cc1ccc(-c2ccccn2)cc1)NC(=O)[C@@H](NC(=O)OC)C(C)(C)C)C(C)(C)C, the IC50 was greater than 100 µM (CES2; enzyme activity, inhibitor, fluorescence; with preincubation).
The IC50 of O=C(NO)c1cc(F)cc(OS(=O)(=O)Oc2ccc(C(F)(F)F)cc2)c1 is reported as 3.13 µM (HDAC8; enzyme activity, inhibitor, fluorescence).
CC(C)c1cccc(C(C)C)c1N=C1C(=O)N(Cc2ccccc2)c2ccccc21 has an IC50 of 0.0816 µM (PIK3CB; enzyme activity, inhibitor, ADP detection).
For O=c1[nH]c2c(nnn2-c2ccc(Br)cc2)c2ccccc12, the IC50 was greater than 10 µM (PARP2; enzyme activity, inhibitor).
O=C(NO)c1cncc(OS(=O)(=O)Oc2ccc(-n3ccnc3)cc2)c1 gave an IC50 of 0.665 µM (HDAC8; enzyme activity, inhibitor, fluorescence).
With O=c1[nH]c2c(nnn2Cc2ccccc2C(F)(F)F)c2ccc(F)cc12 the IC50 was greater than 10 µM (PARP2; enzyme activity, inhibitor).
The IC50 of O=C1Nc2ccccc2C1=Nc1ccccc1I is reported as 0.127 µM (PIK3CB; enzyme activity, inhibitor, ADP detection).
The IC50 of CN(C)C/C=C/C(=O)Nc1cc2c(Nc3ccc(F)c(Cl)c3)ncnc2cc1O[C@H]1CCOC1 is reported as greater than 100 µM (CES2; enzyme activity, inhibitor, fluorescence; with preincubation).
Cc1cc(OS(=O)(=O)Oc2ccccc2)cc(C(=O)NO)c1 has an IC50 of 6.09 µM (HDAC8; enzyme activity, inhibitor, fluorescence).
Cc1[nH]c(C)c(S(=O)(=O)Nc2ccc(Cl)cc2C(F)(F)F)c1C(=O)N1CCC(F)(F)C1 gave an IC50 of 18 µM (DRD3; β-arrestin recruitment, antagonist).
The IC50 of Clc1ccc(C2(c3ccc(-c4ccnc5[nH]ccc45)cc3)CCNCC2)cc1 is reported as 0.001 µM (AKT1 (Homo sapiens, UniProt P31749); enzyme activity, inhibitor, radiometric).
With O=C1C(=Nc2cccc(Cl)c2)c2ccccc2N1Cc1ccc([N+](=O)[O-])cc1 the IC50 was 0.0137 µM (PIK3CB; enzyme activity, inhibitor, ADP detection).
COc1cc2c(cc1OC)C(=O)/C(=C/c1ccc(O)cc1F)C2 has an IC50 of greater than 100 µM (CES2; enzyme activity, inhibitor, fluorescence; with preincubation).
With CC(C)c1cccc(C(C)C)c1N=C1C(=O)N(Cc2cccc(Cl)c2)c2ccccc21 the IC50 was 0.0163 µM (PIK3CB; enzyme activity, inhibitor, ADP detection).
Cc1nc(Nc2ccc3c(c2)/C(=C/c2ccccc2C)C(=O)N3C)c2ccccc2n1 gave an IC50 of 0.146 µM (PIK3CB; enzyme activity, inhibitor, ADP detection).
For COc1ccc(OS(=O)(=O)Oc2cccc(C(=O)NO)c2)cc1OC, the IC50 was 0.033 µM (HDAC8; enzyme activity, inhibitor, fluorescence).
For CC(=O)Nc1ccc(Nc2nc(-c3sc(N)nc3C)cs2)cc1, the IC50 was 0.28 µM (Protein-lysine 6-oxidase (Homo sapiens, UniProt P28300); enzyme activity, inhibitor, fluorescence; with preincubation).
The IC50 of CNC(=O)c1ccccc1Sc1ccc2c(/C=C/c3ccccn3)n[nH]c2c1 is reported as 11.5 µM (CES2; enzyme activity, inhibitor, fluorescence; with preincubation).
COc1cccc(Cn2nnc3c4ccccc4c(=O)[nH]c32)c1 gave an IC50 of greater than 10 µM (PARP2; enzyme activity, inhibitor).
c1ccc(-c2occc2-c2ccnc3ccccc23)nc1 has an IC50 of > 4 µM and 6.4 µM (YCK2 (Candida albicans, UniProt A0A1D8PKB4); enzyme activity, inhibitor, ADP detection).
With Cc1ccc(CN2C(=O)C(=Nc3c(C(C)C)cccc3C(C)C)c3ccccc32)cc1 the IC50 was 0.145 µM (PIK3CB; enzyme activity, inhibitor, ADP detection).
With O=C(NO)c1cccc(OS(=O)(=O)Oc2ccc(-c3cccc(C(F)(F)F)c3)cc2)c1 the IC50 was 1.58 µM (HDAC8; enzyme activity, inhibitor, fluorescence).
Cc1ccc(Cn2cc(-c3ccccc3C(N)=O)nn2)cc1 has an IC50 of greater than 10 µM (PARP2; enzyme activity, inhibitor).
Cc1[nH]c(C)c(S(=O)(=O)Nc2ccc(C(F)(F)F)c3ncccc23)c1C(=O)N1CCC(F)(F)C1 gave an IC50 of 12 µM (DRD3; β-arrestin recruitment, antagonist).
NC(=O)c1ccc(C(=O)NOCc2ccc(Cl)cc2)cc1 has an IC50 of 8.01 µM (SIRT6; enzyme activity, inhibitor, fluorescence).
For O=C(/C=C/c1cccc(OS(=O)(=O)Oc2ccccc2)c1)NO, the IC50 was 0.719 µM (HDAC1; enzyme activity, inhibitor, fluorescence).
CCn1cnc2c([C@@](O)(CC)c3ccc(C(F)(F)F)nc3)n(C)nc2c1=O has an IC50 of > 30 µM and 45 µM (DHODH (Homo sapiens, UniProt Q02127); enzyme activity, inhibitor).
